Results gathered from unrelated publications.
Each line is one published result; not all experiments were run side by side. Several values in a cell are separate wells, animals, samples, runs or records. ± gives the spread as reported.

For `Cc1cnc2nc1Nc1cccc(c1)COC/C=C/COCc1cc(ccc1OCCN1CCOCC1)N2`, the spleen weight was 0.141 g and 0.158 g and 0.148 g and 0.144 g and 0.15 g and 0.134 g (BALB/c mice rhEPO-induced polycythemia; 100 mg/kg).
`COC1OC(C)C(OC2OC(C)C(OS(=O)(=O)O)C(OC3OC(C)C(OC4OC(C)C(OS(=O)(=O)O)C(OS(=O)(=O)O)C4OS(=O)(=O)O)C(OS(=O)(=O)O)C3OS(=O)(=O)O)C2OS(=O)(=O)O)C(OS(=O)(=O)O)C1OS(=O)(=O)O` (centres unmarked) has an APTT prolongation of 1 fold (human plasma; 128 µg/mL; reference: control).
For `O=S(=O)(NCc1ccncc1)c1ccc(C2CCCCC2)cc1`, “PU.1 target genes further upregulated” read 1.5% (bulk RNA sequencing; CK-p25 mice, female, microglia; intraperitoneal, 0.3 mg/kg daily for 2 weeks, 336 h, genes, PU.1 target, upregulated).
For `COc1cc2c(NC3CCN(C(C)C)CC3)cc(N3CCOCC3)nc2cc1OCCCN1CCCC1`, “log2 fold change” read -0.113 (TMT proteomics, item: MFGE8; 5xFAD mouse, hippocampus; dose not given; reference: untreated 5xFAD).
`COC1CN([C@H]2CC[C@H]([C@@]3(C)Oc4c(Cl)cc(C(=O)NCc5c(SC)cc(C)[nH]c5=O)c(C)c4O3)CC2)C1`: “log2 fold change” 1.13 (RNA-seq, item: ARHGEF17 mouse homolog; mouse, HT-1376 xenograft, whole blood; dose not given; reference: vehicle).
Under “TH-immunoreactive cell count ratio”, `COc1ccc(S(=O)(=O)N2CCc3ccccc3C2)cc1N1CCN(C(=O)c2ccc(F)cc2C(F)(F)F)CC1` is recorded as 15.4 ± 1.9 (CNN cell counting; rat, 6-OHDA lesioned, substantia nigra pars compacta; 0.3 µg/24 h, 12 weeks post lesion; reference: lesioned over intact side).
`COC1OC(C)C(OS(=O)(=O)O)C(OC2OC(C)C(OS(=O)(=O)O)C(OC3OC(C)C(OS(=O)(=O)O)C(OC4OC(C)C(OS(=O)(=O)O)C(OC5OC(C)C(OS(=O)(=O)O)C(OC6OC(C)C(OS(=O)(=O)O)C(OC7OC(C)C(OS(=O)(=O)O)C(OC8OC(C)C(OS(=O)(=O)O)C(OC9OC(C)C(OS(=O)(=O)O)C(OC%10OC(C)C(OS(=O)(=O)O)C(OS(=O)(=O)O)C%10O)C9O)C8O)C7O)C6O)C5O)C4O)C3O)C2O)C1O` (centres unmarked) gave an APTT prolongation of 1.3 fold (human plasma; 128 µg/mL; reference: control).
`CCOC(=O)c1c(NC(=O)Cn2cnc([N+](=O)[O-])n2)sc2c1CCC(C)C2` (centres unmarked) gave a translation activity of 98.5% and 106% and 96.5% and 91% (Trypanosoma cruzi; reporter mRNA translation, inhibitor, item: capped polyadenylated Renilla luciferase mRNA; cell-free extract; concentration not given; reference: positive over negative control).
Under “OC+ TS- area”, `CCCCCCCCCCCCCCCC(=O)OCC(CSC[C@H](N)C(=O)N[C@@H](CO)C(=O)N[C@@H](CCCCN)C(=O)N[C@@H](CCCCN)C(=O)N[C@@H](CCCCN)C(=O)N[C@@H](CCCCN)C(=O)NCCCCCC(=O)N[C@@H](CCCCN)C(=O)N[C@@H](CC(C)C)C(=O)N[C@H](C(=O)N[C@@H](Cc1ccccc1)C(=O)N[C@@H](Cc1ccccc1)C(=O)N[C@@H](Cc1ccc2ccccc2c1)C(=O)O)C(C)C)OC(=O)CCCCCCCCCCCCCCC` (some centres unmarked) is recorded as 8.54% and 15.4% and 6.08% and 7.31% (OC antibody staining; APP/PS1 transgenic mouse, cortex; intracortical injection, dose not given, 5 d).
`CC(=O)[O-].O.O.O.O.[Ni+2].[O-]c1ccc(Br)cc1C=NCCN1CCOCC1` has an inhibition of 25.8% (nitric oxide scavenging; 120 µM).
The translation activity of `COc1ccc(/C=C/CN2CCCC(CCC(=O)NCc3ccc(F)c(F)c3)C2)cc1` (centres unmarked) is reported as 98.6% and 93.9% (Trypanosoma cruzi; reporter mRNA translation, inhibitor, item: Renilla luciferase mRNA; cell-free extract; concentration not given, test 2; reference: positive over negative control).
Under “clot retraction velocity”, `O=C(N[C@@H](Cc1ccc(OCCCCC2CCNCC2)cc1)C(=O)O)c1nc2ccccc2o1.O=C(O)C(F)(F)F` is recorded as 0.00476 min⁻¹ and 0.0102 min⁻¹ and 0.00492 min⁻¹ (human, platelet-rich plasma; 1.5 µM, added: thrombin).
`COc1cc(O)ccc1CCC(c1ccc(O)cc1)c1cc2c(c(C)c1O)OC(c1ccc(O)cc1)CC2` (mixture of isomers) gave an amount of 67 ± 10 pg/mL blood (item: 5,15-diHETE; human whole blood; 3 µM, added: Escherichia coli).
`COc1cc(N2CCN(C(=O)C3CCCN3)CC2)ccc1Nc1ncc(Cl)c(Nc2ccccc2P(C)(C)=O)n1` (centres unmarked) gave a tumour volume of 88.4 mm3 and 220 mm3 and 185 mm3 and 25.4 mm3 and 96.5 mm3 (nude mice, NCI-H3122 xenograft; oral, 25 mg/kg every two days, day 9).
